Measured values collected from several papers.
A part holds a random share of what one study measured.

Study 1
Target: Histone acetyltransferase KAT6A, winged helix 2, GST fusion (KAT6A, Homo sapiens, UniProt Q92794, residues 85-181)
Technique: protein binding microarray
Form: double-stranded DNA, one strand shown
Matrix: in vitro
Tested at: not given
Notes: 8-mer, flanks averaged, mean of 2 arrays, mostly near background
Relative to: not given
Reading: higher = stronger binding
Construct (chain): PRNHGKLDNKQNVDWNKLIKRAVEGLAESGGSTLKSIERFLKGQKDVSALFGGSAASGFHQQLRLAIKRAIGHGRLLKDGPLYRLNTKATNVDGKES
For `CGCGAGCC`, the E-score was 0.109.
With `AGGACAAT` the E-score was -0.12.
`ATTATACA` has an E-score of 0.0242.
`GTGTGCAA` has an E-score of -0.045.
With `CGATCGAC` the E-score was -0.011.
The E-score of `CGGAAATA` is reported as 0.0838.
`CGCTCCCG` has an E-score of 0.0374.
`ATTAGACC` has an E-score of -0.221.
`CCGGTCCA` gave an E-score of -0.0877.
`CTATCCAC` has an E-score of -0.018.
For `GTATTAAA`, the E-score was 0.151.
`CTTCTATA` gave an E-score of -0.075.
With `GACGCGCC` the E-score was 0.078.
For `CAGAGCTG`, the E-score was 0.0544.
The E-score of `AATGCGAC` is reported as 0.182.
`CCAATCAG` gave an E-score of -0.0709.
`ACAACCCA` gave an E-score of -0.0809.
With `CGGTCACA` the E-score was -0.025.
`CTACGTGA` has an E-score of -0.198.
`AATGCAAC` gave an E-score of -0.02.
`AATGAGTA` gave an E-score of -0.085.
For `AGAGACCT`, the E-score was -0.197.
For `ACTGAGCG`, the E-score was 0.0789.
`AATGTCAA` has an E-score of -0.0785.

Study 2
Target: Ras GTPase-activating protein-binding protein 1, C-terminal RGG region (G3BP1, Homo sapiens, UniProt Q13283)
UniProt Q13283, sequence (whole entry, looked up): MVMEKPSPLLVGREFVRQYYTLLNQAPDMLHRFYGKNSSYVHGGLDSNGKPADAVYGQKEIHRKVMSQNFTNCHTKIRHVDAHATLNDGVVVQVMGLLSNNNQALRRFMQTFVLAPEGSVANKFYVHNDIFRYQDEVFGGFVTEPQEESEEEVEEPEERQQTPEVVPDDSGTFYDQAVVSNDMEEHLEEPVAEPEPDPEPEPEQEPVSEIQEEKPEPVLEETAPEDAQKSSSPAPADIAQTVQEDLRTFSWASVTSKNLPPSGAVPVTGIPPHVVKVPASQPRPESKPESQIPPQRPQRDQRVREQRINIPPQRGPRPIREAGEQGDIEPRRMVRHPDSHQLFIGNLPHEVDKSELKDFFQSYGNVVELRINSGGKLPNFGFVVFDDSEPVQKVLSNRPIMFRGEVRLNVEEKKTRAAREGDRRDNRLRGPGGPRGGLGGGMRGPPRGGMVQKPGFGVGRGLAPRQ
Technique: RNA Bind-n-Seq
Form: RNA
Matrix: in vitro
Tested at: 1 µM
Notes: whole 134-nt RNA, ends assumed
With: 150 mM KCl
Relative to: input library
Reading: higher = stronger binding
`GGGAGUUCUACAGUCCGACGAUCAAGUCCUGUGCUACACAUCGUAUGUACCGAAUCGGGAAAAGGGAAAAGGGGAAAAGGAAAGUAUUAUGUUACGCCGUUCGGAUCUGCACUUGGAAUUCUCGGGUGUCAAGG` gave a log2 enrichment of -1.33.
`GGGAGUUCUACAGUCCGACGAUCACCAUGCAGGUGGGCAUCUUUGGGAAGUGGGGCAAGGGGGGGAUAGGGAGGGGGGUAACACUUAAAGAACAGGUGGUCCCAGGUCGUUUCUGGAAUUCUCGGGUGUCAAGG` gave a log2 enrichment of -1.05.
With `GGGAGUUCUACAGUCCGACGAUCUGGGAGGUGGAUUUUGUUUAUUUUUUUAGCUCAUUUCCAGGGGUGGGAAUUUUGUUUUAAUAUGUGUCAUGAAUAAAGUUGUUUUUGAAAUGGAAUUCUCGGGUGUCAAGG` the log2 enrichment was 2.83.
For `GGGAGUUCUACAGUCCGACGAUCCUCAAGUCCUGUGCUACACAUCGUAUGUACCGAAUCGGUGGGGUGGGGUGGGGAAAGUAUUAUGUUACGCCGUUCGGAUCUGCACUUCCAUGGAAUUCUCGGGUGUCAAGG`, the log2 enrichment was 1.01.
With `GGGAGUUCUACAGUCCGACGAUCUGGAAUAAGCCUGGUGCUUUCUGGCUAUGUUUGUCAUAGGCUGACCUGGAUAUCACCGAAAUAAACAAACUAACAGCAGAAGCUAUUCAGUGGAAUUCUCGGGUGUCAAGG` the log2 enrichment was -1.23.
The log2 enrichment of `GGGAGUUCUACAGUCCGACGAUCUGGCCCUGGUGGCAUGCGGGGCGGAAGAGGUGGCCUCAUGGAUCGUGGUGGUCCCGGUGGAAUGUUCAGAGGUGGCCGUGGUGGAGACAGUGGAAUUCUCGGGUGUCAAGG` is reported as 2.5.
With `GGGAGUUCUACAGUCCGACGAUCAGUCCUGUGCUACACAUCGUAUGUACCGAAUCAAACCCAAACCCAAACCCCCCCAAAAAAGUAUUAUGUUACGCCGUUCGGAUCUGCACUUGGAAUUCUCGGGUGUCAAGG` the log2 enrichment was -1.19.
For `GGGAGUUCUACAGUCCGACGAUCUGCUGUUCAGGUGGUGGAGAAGAAGAUGGAACCCCAGGCUGCCUGGCUACAGAGCCUGGAGGGAUGCAUGUGGACAGCCAAGAAGAAGCUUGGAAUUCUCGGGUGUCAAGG`, the log2 enrichment was -2.04.
With `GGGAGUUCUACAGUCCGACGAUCGUCCUGUGCUACACAUCGUAUGUACCGAAUCGGGUUUUUUGGUUUUUUGGUUUUUUGGAAAGUAUUAUGUUACGCCGUUCGGAUCUGCACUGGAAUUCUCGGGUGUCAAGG` the log2 enrichment was -1.5.
`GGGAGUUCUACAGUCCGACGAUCGCAGGAAGUAAAAACAAAUGGAAAUGCUUCGGAUAGUGGCAGGGGUGGGGGUUGCUAAGGAAAGGGUGGGAUGGGAGUGGGCAAAGAGUUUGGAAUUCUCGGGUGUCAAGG` gave a log2 enrichment of 0.859.

Study 3
Target: Protein C-ets-1 (ETS1, Homo sapiens, UniProt P14921, residues 1-441, K379A, full length assumed)
Technique: protein-binding microarray
Form: double-stranded DNA, one strand shown
Matrix: in vitro
Tested at: not given
Notes: k-mer, scored over probes, only values ≥0.25
Reading: higher = stronger binding
Construct (chain): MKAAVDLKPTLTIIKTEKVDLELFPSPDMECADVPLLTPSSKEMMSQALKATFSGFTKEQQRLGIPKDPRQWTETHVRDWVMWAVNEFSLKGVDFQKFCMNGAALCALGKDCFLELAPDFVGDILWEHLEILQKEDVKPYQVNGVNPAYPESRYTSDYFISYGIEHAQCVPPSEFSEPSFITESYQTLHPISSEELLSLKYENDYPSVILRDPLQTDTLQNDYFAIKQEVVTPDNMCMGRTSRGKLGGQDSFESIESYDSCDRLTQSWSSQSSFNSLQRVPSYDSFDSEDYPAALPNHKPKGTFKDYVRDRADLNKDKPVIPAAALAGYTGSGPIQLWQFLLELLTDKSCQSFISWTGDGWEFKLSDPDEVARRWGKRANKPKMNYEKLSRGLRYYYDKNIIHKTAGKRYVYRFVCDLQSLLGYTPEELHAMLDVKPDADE
`CTAACGTA` gave an E-score of 0.279.
For `TACAGCTA`, the E-score was 0.257.
For `TGCAACAA`, the E-score was 0.257.
With `CATCCGGG` the E-score was 0.35.
The E-score of `TACAGATA` is reported as 0.308.
`GTAACACA` has an E-score of 0.267.
With `CGGAAAAG` the E-score was 0.287.
For `TACTATAA`, the E-score was 0.25.
`ACTACAGA` gave an E-score of 0.281.
`AAGATAAT` has an E-score of 0.25.
The E-score of `CGCCGGCA` is reported as 0.303.
For `AGCTTCCG`, the E-score was 0.254.
With `GTGTCATA` the E-score was 0.307.
`GTCAAACA` has an E-score of 0.262.
For `CCGGTGCA`, the E-score was 0.406.
`CGATATTA` gave an E-score of 0.262.
`GCGCCGGA` gave an E-score of 0.254.
The E-score of `CCGGGGGA` is reported as 0.408.

Study 4
Target: RNA binding protein fox-1 homolog 2, RRM domain, GST-SBP tag (RBFOX2, Homo sapiens, UniProt O43251-10, residues 100-194)
Technique: RNA Bind-n-Seq
Form: RNA
Matrix: in vitro
Tested at: 365 nM
Notes: natural RNA segment, single round, ends assumed
Relative to: no-protein control
Reading: higher = stronger binding
Construct (chain): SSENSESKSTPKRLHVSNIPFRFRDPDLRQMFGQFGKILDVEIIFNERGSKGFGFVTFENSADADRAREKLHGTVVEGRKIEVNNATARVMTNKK
For `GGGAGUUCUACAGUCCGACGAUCUUGCUUUUGUUUUUUUAAUUUUUAUUUUUGGAUGGGAUAUUCACAAAUAUCUGUAUUAUACUCUAAGCUAUUACAAUGGUACUUAAAAUAAUGUAAAUUUGAAGUCAUUGUGGAAUUCUCGGGUGCCAA`, “RBNS enrichment (R)” read 0.649.
For `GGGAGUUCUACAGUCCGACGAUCUUAAAUCGGAUGUUUCCUGUACCUGCCACACUAUGUUAGAAUGUGUCCUUCAACCAUAUCCUGCAACUUCUCAAACUGUACUAAAUUGAUAUUUCUUGAAGUCUAACUCUUGGAAUUCUCGGGUGCCAA`, “RBNS enrichment (R)” read 0.445.
Under “RBNS enrichment (R)”, `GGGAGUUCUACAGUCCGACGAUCCCUACUCUGGCAUAAUUCAAGUGUCUUCUUGCCUUGGGGAUCCUUAGUGGCAUCAAAUGGCAACAUGGAAUAUUGUCCUCCAUGCCCCUCCAGAAGGACCUAGGAGAGUAUGGAAUUCUCGGGUGCCAA` is recorded as 0.389.
For `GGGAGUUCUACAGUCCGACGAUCUAGGCAUCAUUUUGAGAAUGCUGACACUUUUUCAGGGCUGUGAUUGAGUGAGGGCAUGGGUAAAAAUAUUUCUUUAAAAGAAGGAUGAACAAUUAUAUUUAUAUUUCAGGUGGAAUUCUCGGGUGCCAA`, “RBNS enrichment (R)” read 0.989.
For `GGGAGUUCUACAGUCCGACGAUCGGUAUUUUAUUCUCUUUGAAGCAAUUGUGAAUGGGAGUUCACUCAUGAUUUGGCUCUCUGUUUGUCUGUUGUUGGUGUAUAAGAAUGCUUGUGAUUUUUGUACAUUGAUUUGGAAUUCUCGGGUGCCAA`, “RBNS enrichment (R)” read 0.944.
`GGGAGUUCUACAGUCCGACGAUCAGUGAAAAGUGAGAUCAGUAAUGAGCUGUGUUGUUAACAAUAUUAUCUGGUAAUAAUACCAUGCAAUAUAGCGUUGUAUACCAACUUAGUGCAUUUUAUACUGUAUUAAAUGGAAUUCUCGGGUGCCAA`: “RBNS enrichment (R)” 0.35.
Under “RBNS enrichment (R)”, `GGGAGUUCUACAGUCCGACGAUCAGCACAACACUAAUCCUGUUUCCUUAAACCUCCGUUCAAGUGCCCCUAUUUAUUUCAGUGAGAAUGCGUGUCCGGUUGCCUCUGUCCCUGUUUGUGCGUCCUUCCUCCCAUGGAAUUCUCGGGUGCCAA` is recorded as 0.544.
`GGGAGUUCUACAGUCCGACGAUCCUCUGUUCCCCACCCCUUCCCUUGCUGGCCAUUCUUGGCUUUUAGAAGGGAAAUGUUGAGCCAAAGUUAUGCCUGCGAAGACCCUAAGGUCUCAAAAAGAAGUCUUAAGAUGGAAUUCUCGGGUGCCAA`: “RBNS enrichment (R)” 0.907.
`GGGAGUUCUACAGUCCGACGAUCAUCAAGGUUCUUCAAGGGGUCUUUCUCCCUCUGAGAUAUUCAAGGCAAAUGUCUGGAUGUCGCAUUUCCUCACCCCCCACCUCAUGAAUCCUACUUCUCCCCAACAUAGAUGGAAUUCUCGGGUGCCAA` — result for “RBNS enrichment (R)”: 0.439.
`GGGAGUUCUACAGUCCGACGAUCACUCCAGUCCUUCCUUGAGUGUAUCCUGUGGCCUACAUGUGUCUUCAUCCUUCCCUAAUGCCGUCUUGGGGCAGGGAUGGAAUAUGACCAGAAAGUUGUGGAUUAAAGGCUGGAAUUCUCGGGUGCCAA`: “RBNS enrichment (R)” 0.461.
`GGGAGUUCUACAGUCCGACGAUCUGAAAAAUUAUCAGUUAUAUUUUGCUGUUUAUGAUCUAUUUGUAGAUUAGGAUUAAAAUGGAUUUAAUCCAUUUUUAAGGCUGUGUGAAUUUUUCUAAACAAGAACCAUUUGGAAUUCUCGGGUGCCAA` — result for “RBNS enrichment (R)”: 0.387.
`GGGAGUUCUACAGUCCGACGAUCAAACUUGGCUCCAGGGUUGGUGCUUCUUAAAUGGGGAAAGGCACAGUGAACUUCAGCCAUAUUAAGGACGUGGUCUGUGGUUUAUCACCAGACUUGUUCACUCCAUUCAAUGGAAUUCUCGGGUGCCAA`: “RBNS enrichment (R)” 0.386.

Some of these lines once more (study 4):
For `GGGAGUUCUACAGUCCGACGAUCUAGGCAUCAUUUUGAGAAUGCUGACACUUUUUCAGGGCUGUGAUUGAGUGAGGGCAUGGGUAAAAAUAUUUCUUUAAAAGAAGGAUGAACAAUUAUAUUUAUAUUUCAGGUGGAAUUCUCGGGUGCCAA`, “RBNS enrichment (R)” read 0.989.
For `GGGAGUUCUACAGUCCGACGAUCGGUAUUUUAUUCUCUUUGAAGCAAUUGUGAAUGGGAGUUCACUCAUGAUUUGGCUCUCUGUUUGUCUGUUGUUGGUGUAUAAGAAUGCUUGUGAUUUUUGUACAUUGAUUUGGAAUUCUCGGGUGCCAA`, “RBNS enrichment (R)” read 0.944.
`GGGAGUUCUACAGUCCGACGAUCAGUGAAAAGUGAGAUCAGUAAUGAGCUGUGUUGUUAACAAUAUUAUCUGGUAAUAAUACCAUGCAAUAUAGCGUUGUAUACCAACUUAGUGCAUUUUAUACUGUAUUAAAUGGAAUUCUCGGGUGCCAA`: “RBNS enrichment (R)” 0.35.
Under “RBNS enrichment (R)”, `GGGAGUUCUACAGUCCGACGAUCAGCACAACACUAAUCCUGUUUCCUUAAACCUCCGUUCAAGUGCCCCUAUUUAUUUCAGUGAGAAUGCGUGUCCGGUUGCCUCUGUCCCUGUUUGUGCGUCCUUCCUCCCAUGGAAUUCUCGGGUGCCAA` is recorded as 0.544.
`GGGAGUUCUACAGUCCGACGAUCCUCUGUUCCCCACCCCUUCCCUUGCUGGCCAUUCUUGGCUUUUAGAAGGGAAAUGUUGAGCCAAAGUUAUGCCUGCGAAGACCCUAAGGUCUCAAAAAGAAGUCUUAAGAUGGAAUUCUCGGGUGCCAA`: “RBNS enrichment (R)” 0.907.
`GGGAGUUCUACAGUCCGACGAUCAUCAAGGUUCUUCAAGGGGUCUUUCUCCCUCUGAGAUAUUCAAGGCAAAUGUCUGGAUGUCGCAUUUCCUCACCCCCCACCUCAUGAAUCCUACUUCUCCCCAACAUAGAUGGAAUUCUCGGGUGCCAA` — result for “RBNS enrichment (R)”: 0.439.
